Assay results collected from several papers.
± marks the error that the study gave.

`COC(=O)C(OC(=O)c1cncn1C(C)c1ccccc1)C(C)C` (centres unmarked) has a selectivity ratio of 100 fold (metabolism rate; Sprague-Dawley rat, pooled blood; reference: (R)-form over (S)-form).
With `CN[C@@](C)(C[18F])C(=O)O` the tissue uptake was 3.9 ± 0.7 %ID/g (SCID mouse MDA-MB-468 xenograft, heart; 60 min, post injection).
With `CCCCCc1cc(O)c2c(c1)OC(C)(C)[C@@H]1CCC(C)=C[C@@H]21` the ED50 was 7.7 mg/kg (locomotor activity suppression; ICR mouse, male; subcutaneous, 60 min).
`CNC(=O)O/N=C/C(C)(C)SC` has a percent metabolized of 10.9% (human liver mitochondrial preparation; 1 µM, 30 min, 0.5 mg/mL protein).
With `Cc1ncc2n1-c1ccc(Cl)cc1C(c1ccccc1F)=NC2` the AUC(0-6 h) was 0.31 ng·h/mL (human, dried blood spots; dose not given, prasugrel alone session).
Under “deviation from nominal”, `CCCCCn1cc(C(=O)c2cccc3ccccc23)c2ccccc21` is recorded as ≤ 15% (blood; 24 h, freeze-thaw and bench-top).
The brain concentration of `N[C@@]1(c2ccccc2Cl)CCC[C@@H](O)C1=O` is reported as 20.4 µg/g (male CD-1 mice, brain; intravenous, 50 mg/kg, 10 min).
With `CCCCCc1cc(O)c2c(c1)OC(C)(C)[C@@H]1CCC(C)=C[C@@H]21` the Km was 1.4 ± 0.2 nM (substrate, measured: 11-hydroxy metabolite; pooled human liver microsomes; 2 min, unbound concentration).
For `Cc1ncc2n1-c1ccc(Cl)cc1C(c1ccccc1F)=NC2`, the AUC(0-last) was 0.259 µM·h (healthy human volunteers, plasma; oral, 5 mg single dose, geometric mean, together with: double-strength cranberry juice).
For `COc1ccc2[nH]cc(CCN(C)C)c2c1`, “time of micromolar brain level” read ≥ 60 min (LC-MS/MS; rat, whole brain; subcutaneous, 1 mg/kg, together with: clorgyline).
For `CN1CC[C@@]23CCCC[C@@H]2[C@@H]1Cc1ccc(O)cc13`, the Tmax was 0.46 ± 0.1 h (Wistar rat, both sexes, plasma; oral, 5 mg/kg DEM, DEM 2 h after pretreatment, together with: QN 2.5 mg/kg single pretreatment).
`CN1C(=O)CC(=O)N(c2ccccc2)c2cc(Cl)ccc21` gave a half-life of 2.26 h (CF-1 mouse, brain; intraperitoneal, 7 mg/kg).
`C#Cc1ccc2c(c1)C(c1ccccc1)=NCc1c(C(=O)OCC)ncn1-2` has a compound remaining of < 14% (metabolic stability; human, liver microsomes; 30 min, pH 7.4).
`O=C(O)c1nn(Cc2ccc(Cl)cc2Cl)c2ccccc12` gave an EC20 of > 800 µM (cytochrome c release, ELISA; BALB/cByJ female mouse liver mitochondria; 30 min; reference: alamethicin maximal release).
Under “median plasma concentration”, `C=C1C[C@@H]2[C@H](CC[C@]3(C)C(=O)CC[C@@H]23)[C@@]2(C)C=CC(=O)C=C12` is recorded as 6.9 ng/mL (LC-MS/MS; postmenopausal breast cancer women, plasma; oral, 25 mg/day, 2 h, prior chemotherapy).
With `Cc1ncc2n1-c1ccc(Cl)cc1C(c1ccccc1F)=NC2` the Cmax was 37 ng/mL (healthy men, plasma; oral, 7.5 mg, day 26, LS mean, together with: 14 days post amenamevir).
The Tmax of `Cc1ncc2n1-c1ccc(Cl)cc1C(c1ccccc1F)=NC2` is reported as 1.5 h (human CYP3A5*3/*3 non-expressers, serum; oral, median, together with: ketoconazole 200 mg).
With `Cc1ncc2n1-c1ccc(Cl)cc1C(c1ccccc1F)=NC2` the t1/2 was 5.43 h (healthy volunteers, plasma; oral, 7.5 mg single dose, day 1, arithmetic mean, alone).
`C[C@@H]1N=C(c2ccccc2F)c2cc(Br)ccc2NC1=O` gave a concentration of 1400 nM (male Wistar rat, plasma; intraperitoneal, 10 mg/kg, 1 h).
`COc1ccsc1CNCC[C@@]1(c2ccccn2)CCOC2(CCCC2)C1` has an exposure increase of ~20% (human, end-stage renal disease; intravenous, dose not given; reference: normal renal function).
With `CCCCCCCCCCC(=O)O[C@H]1CC[C@H]2[C@@H]3CCC4=CC(=O)CC[C@]4(C)[C@H]3CC[C@]12C` the serum testosterone was 89.5 ± 4.9 ng/dL (blood of hypogonadal men, plain tubes; 100 ng/mL).
The plasma concentration of `C[C@H]1CNCCc2ccc(Cl)cc21` is reported as 2.05 ± 0.07 ng/mL (Sprague-Dawley rat, male, plasma; subcutaneous, 0.5 mg/kg, 240 min).
With `CC(C)C[C@@H]1NC(=O)[C@H](C)N(C)C(=O)[C@H](Cc2ccccc2)NCc2cc(cn2C)CNC1=O` the Papp was 0.24 ×10⁻⁶ cm/s (PAMPA; 100 µM, 17 h, pH 6.4).
With `COc1ccc2[nH]cc(CCN(C)C)c2c1` the AUC(0-inf) was 1.83 ± 0.25 µM·h (wild-type FVB/N mouse, serum; intraperitoneal, 2 mg/kg, together with: harmaline 5 mg/kg i.p. pretreatment).
With `O=C(O)CC[C@H](NP(=O)(O)OC[C@H](NC(=O)CC[C@H](NC(=O)c1ccc([18F])cc1)C(=O)O)C(=O)O)C(=O)O` the tissue uptake was < 0.25 %ID/g (ex vivo biodistribution; male NCr nude mice, LNCaP PSMA+ xenograft, all other organs except kidney; 2 h; nonspecific uptake).
Under AUC, `COc1ccc2c(c1)[C@]13CCCC[C@@H]1[C@H](C2)N(C)CC3` is recorded as “decreased” (measured: HHMA; rat, plasma; intraperitoneal, 30 mg/kg, three doses, together with: MDMA 20 mg/kg oral; reference: MDMA with saline).
With `C#Cc1ccc2c(c1)C(c1ccccc1F)=N[C@@H](C)c1c(C(=O)OC)ncn1-2` the compound remaining was < 5% (metabolic stability; human, liver microsomes; 30 min).
`NC1(c2ccccc2Cl)CCCCC1=O` (racemic) gave a Tmax of 0.44 ± 0.48 h (male Wistar rats, plasma; intraperitoneal, 40 mg/kg single dose).
For `COc1ccc2c(c1)[C@]13CCCC[C@@H]1[C@H](C2)N(C)CC3`, the t1/2 was 2.39 ± 0.67 h (Wistar rat, both sexes, plasma; oral, 5 mg/kg, 2 h after pretreatment, together with: single TCE 400 mg/kg).

For quick reference, copied from above:
The plasma concentration of `C[C@H]1CNCCc2ccc(Cl)cc21` is reported as 2.05 ± 0.07 ng/mL (Sprague-Dawley rat, male, plasma; subcutaneous, 0.5 mg/kg, 240 min).
With `CC(C)C[C@@H]1NC(=O)[C@H](C)N(C)C(=O)[C@H](Cc2ccccc2)NCc2cc(cn2C)CNC1=O` the Papp was 0.24 ×10⁻⁶ cm/s (PAMPA; 100 µM, 17 h, pH 6.4).
With `COc1ccc2[nH]cc(CCN(C)C)c2c1` the AUC(0-inf) was 1.83 ± 0.25 µM·h (wild-type FVB/N mouse, serum; intraperitoneal, 2 mg/kg, together with: harmaline 5 mg/kg i.p. pretreatment).
With `O=C(O)CC[C@H](NP(=O)(O)OC[C@H](NC(=O)CC[C@H](NC(=O)c1ccc([18F])cc1)C(=O)O)C(=O)O)C(=O)O` the tissue uptake was < 0.25 %ID/g (ex vivo biodistribution; male NCr nude mice, LNCaP PSMA+ xenograft, all other organs except kidney; 2 h; nonspecific uptake).
